Assay results pooled from the literature.
Parts stem from different laboratories: compare values within a part only. Changes are numbered by the printed parent chain.

Set 1 — method: RNA Bind-n-Seq; form: RNA; medium: in vitro; concentration: not given; baseline: input RNA pool; direction: higher = stronger binding
Target: RING finger protein unkempt homolog, zinc fingers 1-6, GST-SBP tag (UNK, Homo sapiens, UniProt Q9C0B0, residues 30-357)
Sequence of UniProt Q9C0B0 (30-357, looked up): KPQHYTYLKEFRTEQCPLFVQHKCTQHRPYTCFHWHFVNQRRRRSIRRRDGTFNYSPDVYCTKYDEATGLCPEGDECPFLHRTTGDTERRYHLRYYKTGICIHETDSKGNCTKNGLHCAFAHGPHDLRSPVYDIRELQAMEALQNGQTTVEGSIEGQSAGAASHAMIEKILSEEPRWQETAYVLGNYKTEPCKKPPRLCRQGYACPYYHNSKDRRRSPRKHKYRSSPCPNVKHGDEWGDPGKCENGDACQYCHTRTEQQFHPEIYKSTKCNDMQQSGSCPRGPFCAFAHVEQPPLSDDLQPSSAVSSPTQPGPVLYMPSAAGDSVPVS
Notes: RNA with constant flanks, human-mouse chimeric sites, ends assumed
Shared flanks, not repeated: GGGAGUUCUACAGUCCGACGAUC … CAACAGAGGAUUGAGCAUCA
`CACAGAGGAGAUCUGCUGUUCCUCACGAAUUUCCGGGAAGACCCAAUCAGAGCUGGUGAAAUAGUUGUUUUUAAGGUUGAAGGAAGAGACAUUCCGAUAGUUCACAGAGUAAUCAAAGUU` has a bound/input enrichment of 1.55 ratio.
For `CACAGAGGAGACCUCCUGUUCCUCACGAAUUUCCGGGAGGACCCCAUCAGAGCUGGUGAAAUAGUUGUUUUUAAGGUUGAAGGAAGAGACAUUCCAAUAGUUCACAGAGUAAUCAAGGUU`, the bound/input enrichment was 4.64 ratio.
The bound/input enrichment of `AAUGUUCUUAAUAUUUUUAAAGGAAGCAAGCUAAAAUGUCUGCUUUUGGUACAACACGCAUUAAUAAAAGGUUAAGUUUUGUUUUCCACUGAAGUACUAUUUAACAUCUCAGAAAAAAAC` is reported as 0.199 ratio.
With `CAGCCUCAGAGCCCAGACUUCCUGGAUAUUACCAACCCUAAAGCGGUAUUAGAAAACGCAUUGAGAAACUUCGCCUGUCUGACCACCGGAGAUGUGAUUGCUAUCAACUACAAUGAGAAG` the bound/input enrichment was 0.402 ratio.
With `UGUGAACUGAAAGGUGUGAUCUAAAAACAAGAUGACUUUUCCUGGCACAUAUUCCAAAGCAAAGACUUUGUUGCCUGCUGCUUCUUGUCUAAUUUACAGGGAUAUUUAAUUUUGUCAGGU` the bound/input enrichment was 0.141 ratio.
With `CACUCGAGGGCUGCCGUUUUCUGUUUCUCCCUGGGCUGCGGAAAGCCAGAAGAUUUUAUCUAGCUUAUACAAGGCUGCUGGAGCUUGCUCUUUUUUUCCACGAGGGUGUUUUUGGCUGCA` the bound/input enrichment was 0.362 ratio.
`CUGGCCUGGCCCUCCCCAGGGGCCUCCUUUCGUAUAGUCACUGCUUCUGCAUCAGAUAUUUUUAGCUGCAACUCCCUACUGGGUGGGGCACCCAUUUCAGGCAGAAGUUGGUGCCCCCCU` gave a bound/input enrichment of 0.491 ratio.
With `UCAUUUUGCUCGGGUUAUUCUUUCCUUAAAAGCCUAACUAAAGAUUAGGUUGUAAGAAAAACAGAAGCCAUGUUUCGAAGACCUGUGUUACAGGUAUUUCGUCAGUUUGUAAGACAUGAG` the bound/input enrichment was 0.226 ratio.
For `UAAGUCCUGUGCCAGCACUUCGCUCAUAAAGUUUUAAAUUCUGGACCAAUUGUGUUUGUUUCCUGAUUAUUGUAUCCAAUACUUUGCCUAGUAUGUAACUCACUCUUACUGAUAAUAAAA`, the bound/input enrichment was 1.24 ratio.
For `GGGACUGAUUCAUCCCAAGGACAGGCAACCCCAUUUGAUGCCUGGACUGAUGACAGUAUGGAAGGGCCUAGUCAAAAUUUUGAAGCUGAGUCAAUUCAGGAUGCCAUGAGUAUGGAAGAG`, the bound/input enrichment was 0.436 ratio.
`UUUCUAUUGCAGCAAACGAUGCUAAGAAUUAAGGAUCCUAAGAAGUCCCUGGAUUUUUAUACGAGGGUUCUUGGACUGACCCUCCUGCAAAAAUGUGACUUCCCUGCUAUGAAGUUCUCG` gave a bound/input enrichment of 0.268 ratio.

Set 2 — method: RNA Bind-n-Seq; form: RNA; medium: in vitro; concentration: 365 nM; baseline: no-protein control; direction: higher = stronger binding
Target: RNA binding protein fox-1 homolog 2, RRM domain, GST-SBP tag (RBFOX2, Homo sapiens, UniProt O43251-10, residues 100-194)
Notes: natural RNA segment, single round, ends assumed
Shared flanks, not repeated: GGGAGUUCUACAGUCCGACGAUC … UGGAAUUCUCGGGUGCCAA
Target sequence (chain): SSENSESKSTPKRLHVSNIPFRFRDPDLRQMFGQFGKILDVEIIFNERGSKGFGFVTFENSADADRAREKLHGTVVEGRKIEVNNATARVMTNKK
`GCUACUCUAAUCUUUUACGUAUUAAAUGCACUAGGCUAGUAGCCCUUGCCUUUCCUUUCCUGAAACUCUUUCAACACAACUGUGUCUAUAUGACUACGGCUCAUGCUUCC` — result for “RBNS enrichment (R)”: 0.302.
`AAAGGAACAUUUUAACUGUAAAGGCUAGAGACAAGAAGACAAAAGAGUAGAUCAUUUUAAUAAGAAUUAUUUAAUCCCAUACAAGUUUUCUUUGCAGGAGCUAGCCCAAA`: “RBNS enrichment (R)” 0.552.
Under “RBNS enrichment (R)”, `UAAUCCUGUAUUAUUUCUUCUACUUUGUUUUGUGUAAAAGGGGAAAAAAUAAAAAAAGCUGGAAUCUCAUGUCUCACUUUCUUUAUAACUUAGCCAAUAUAAUAUUUAUG` is recorded as 0.619.
`CUAGGUAGAAUUUUUAAGUCUAACGUGAACUUUAGCUUUAUCAGACAUUUUUGUUACUAGUGCCUAGAACAUAGUAGGUGCUCAAUAAAUACACAUGGAGUAAUUGAAUG`: “RBNS enrichment (R)” 0.292.
Under “RBNS enrichment (R)”, `AUACCUAUGUUCGAUUUUGUUUUGUUUUGUUUUGUUCUGGCUUUGAGGCUUGUUUUGUUGUCUGUGUCUGUCUGAAUAACCUGCGUGUCUAAAACCACGUGAAAUGUGAA` is recorded as 22.9.
For `GAAGAUGUCUCAACCCUACAAAGACUAAAGUGCGCCAUCCCAGUGCCACAGAAGGCAGAGGGUAGUUGGUGGCCUUUUCAUCCACUUAACCCUGACACAGGCAGCUGCUG`, “RBNS enrichment (R)” read 0.282.
`GUUGUUGUUUUGUUUUGUUUUUUGUUUUGCUUUUGCGGUAACUGCACCACUAUGAAACAUUGACUUGCUAUUUCAAAUUCCUGGAUUCUAAGGAAUUUCUCAUCUGACAA`: “RBNS enrichment (R)” 0.597.
`UUCCUUACACUUUUUUUCUGAAUAAGUCUCUCAUAAUGAGUGCAGUGUCAGACUGUGCCUACUCUGAUGGUAUGUGCCAUUUGUAAAAUAAAAUAGAGCAGAAAAACACA` — result for “RBNS enrichment (R)”: 0.346.
For `AGAGAUCACAUCGCCUCUUAGAGACCAUGUCACCUCCUAUCUGUCACCCUUCCUCUUCCUGUCACAGUGACAGGUCUUCACUAGCUGGCUUCUUUCUGUACUUGCUGACU`, “RBNS enrichment (R)” read 0.294.

Set 3 — method: competition protein-binding microarray; form: double-stranded DNA, one strand shown; medium: in vitro; concentration: 2 µM; added: Cbf1 competitor, 0.05 µM; direction: higher = stronger binding; shared flanks, not repeated: … GTCTTGATTCGCTTGACGCTGCTG
Target: Phosphate system positive regulatory protein PHO4, full length, GST-tagged (PHO4, Saccharomyces cerevisiae, UniProt P07270, residues 1-312)
Notes: whole 60-bp probe, lowest competitor level
Target sequence (chain): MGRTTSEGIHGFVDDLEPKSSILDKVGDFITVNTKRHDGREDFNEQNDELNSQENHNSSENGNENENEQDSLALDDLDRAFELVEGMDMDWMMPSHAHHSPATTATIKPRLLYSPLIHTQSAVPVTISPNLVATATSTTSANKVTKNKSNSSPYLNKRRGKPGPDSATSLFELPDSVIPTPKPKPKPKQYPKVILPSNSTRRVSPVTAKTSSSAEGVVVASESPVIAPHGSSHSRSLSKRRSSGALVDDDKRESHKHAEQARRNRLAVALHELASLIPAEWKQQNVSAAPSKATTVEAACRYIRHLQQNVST
The fluorescence intensity of `CATAAGAGGTTTGGACACGTTCTTAAGGCTAACTCC` is reported as 13400 a.u.
For `AAAGGACCATTTAGGTACGTGGGACCGCAAAGGTTC`, the fluorescence intensity was 6860 a.u.
`AAATCATTGATTTCCAATCTTTAAAAAATCCATCCA` has a fluorescence intensity of 2720 a.u.
`ATCGTTCAATTTATCTTCGGCATTTTTCTGAATTTT` gave a fluorescence intensity of 3470 a.u.
With `TATTATAATACTCAACACGTGACTCGAGCCTTCCCA` the fluorescence intensity was 15400 a.u.
`TTGACACCATGTTTGCACATGTTACCTGCCGACTAC` has a fluorescence intensity of 9610 a.u.
With `CTGTTTTAACATTGGCTCGTGACGGACTAGATCCTC` the fluorescence intensity was 7720 a.u.
For `AAATTACTAAGTTGTTGTGTGGGTGACGCCGTATGA`, the fluorescence intensity was 4820 a.u.
`AGTCAAGTAAGGCGTCACCTGATTCTACTCCGGCCC` gave a fluorescence intensity of 3290 a.u.
`CTTAGGAATGATTAAAGCATGACAATCAGCAGTAGG` has a fluorescence intensity of 5720 a.u.
`TCAAGACCCTTAAAGCACGTTTTTTTCAGGCTCGGC` has a fluorescence intensity of 13300 a.u.
For `TAGGCGCAGACCGCGCTCGTGAAGCAGACCTCCCGG`, the fluorescence intensity was 5600 a.u.
The fluorescence intensity of `CACTTCATACATGGCTACGTGGGTAACAAGGCCGCT` is reported as 7980 a.u.
The fluorescence intensity of `AAAGCGGTAATTTGGATTGTGGGTGCAGATATCTAT` is reported as 4510 a.u.
For `CTATCTTCAAAGGTTGTCGTGCCGATGTTGTAATGG`, the fluorescence intensity was 7360 a.u.
`ATCGCTTTGCATCCTTACGTGCGGAAGATGGCATCG` gave a fluorescence intensity of 4920 a.u.
With `GCAACCAGGGGCCACCACGTGAAGAACTGAGCAATC` the fluorescence intensity was 12800 a.u.
The fluorescence intensity of `CTTTTGGATTCCCATCACGTCATGAAAGATTCTTCT` is reported as 4270 a.u.
With `CCGATGATATGATTGCACGTCCACTGAACAGGTTAA` the fluorescence intensity was 5470 a.u.
With `ATCTTGTTGCTGTTCTACGTGCTTTAGTGTAGTATT` the fluorescence intensity was 8220 a.u.
The fluorescence intensity of `AAGATTACACTCGCGAACGTGCGATCGGGATGATAC` is reported as 14400 a.u.
For `AATTTGATAATTTGGCATGTGCGATCTCTTCGAAAA`, the fluorescence intensity was 11100 a.u.
`CATACCCAACCTTTTCACGTGCGTTAAGATATTTGT` gave a fluorescence intensity of 15700 a.u.
With `ACATATAGTTTTTTGCACGTGATGGAACTTCTAAGT` the fluorescence intensity was 16400 a.u.
For `TGCTTTTCCATTGGTTACGTGCTAAGTTGTTAGATA`, the fluorescence intensity was 6290 a.u.

Set 4 — target: CCNE1, cyclin fold, Cln2 fusion (human); method: yeast growth competition, sequencing; medium: yeast; notes: strong parent motif; baseline: not given; direction: higher = stronger binding
Starting sequence: E2F1 docking peptide (human); PPVKRRLDLETDH
`D8M`: “normalised enrichment score” 2.45.
`R6F`: “normalised enrichment score” 0.06.
`L7C`: “normalised enrichment score” 0.498.
Under “normalised enrichment score”, `P2S` is recorded as 1.92.
Under “normalised enrichment score”, `R5H` is recorded as -0.236.
Under “normalised enrichment score”, `P1D` is recorded as 0.24.
`V3M`: “normalised enrichment score” 0.794.
Under “normalised enrichment score”, `P2E` is recorded as 0.907.
`R5W` — result for “normalised enrichment score”: 0.369.
`V3H`: “normalised enrichment score” 0.0887.
`P2N`: “normalised enrichment score” 2.5.
`D12P`: “normalised enrichment score” 2.33.
Under “normalised enrichment score”, `P1K` is recorded as 2.06.
Under “normalised enrichment score”, `P2L` is recorded as 0.704.
`D12A` — result for “normalised enrichment score”: 1.34.
`P2Y` — result for “normalised enrichment score”: 1.44.
For `D12Y`, “normalised enrichment score” read 2.72.

Excerpt of the above (set 3):
The fluorescence intensity of `AAAGCGGTAATTTGGATTGTGGGTGCAGATATCTAT` is reported as 4510 a.u.
For `CTATCTTCAAAGGTTGTCGTGCCGATGTTGTAATGG`, the fluorescence intensity was 7360 a.u.
`ATCGCTTTGCATCCTTACGTGCGGAAGATGGCATCG` gave a fluorescence intensity of 4920 a.u.
With `GCAACCAGGGGCCACCACGTGAAGAACTGAGCAATC` the fluorescence intensity was 12800 a.u.
The fluorescence intensity of `CTTTTGGATTCCCATCACGTCATGAAAGATTCTTCT` is reported as 4270 a.u.
With `CCGATGATATGATTGCACGTCCACTGAACAGGTTAA` the fluorescence intensity was 5470 a.u.
With `ATCTTGTTGCTGTTCTACGTGCTTTAGTGTAGTATT` the fluorescence intensity was 8220 a.u.
The fluorescence intensity of `AAGATTACACTCGCGAACGTGCGATCGGGATGATAC` is reported as 14400 a.u.
For `AATTTGATAATTTGGCATGTGCGATCTCTTCGAAAA`, the fluorescence intensity was 11100 a.u.
